Published values gathered from unrelated publications.
Protocols differ between the studies behind these lines.
Sequence of UniProt Q15139 (whole entry, looked up): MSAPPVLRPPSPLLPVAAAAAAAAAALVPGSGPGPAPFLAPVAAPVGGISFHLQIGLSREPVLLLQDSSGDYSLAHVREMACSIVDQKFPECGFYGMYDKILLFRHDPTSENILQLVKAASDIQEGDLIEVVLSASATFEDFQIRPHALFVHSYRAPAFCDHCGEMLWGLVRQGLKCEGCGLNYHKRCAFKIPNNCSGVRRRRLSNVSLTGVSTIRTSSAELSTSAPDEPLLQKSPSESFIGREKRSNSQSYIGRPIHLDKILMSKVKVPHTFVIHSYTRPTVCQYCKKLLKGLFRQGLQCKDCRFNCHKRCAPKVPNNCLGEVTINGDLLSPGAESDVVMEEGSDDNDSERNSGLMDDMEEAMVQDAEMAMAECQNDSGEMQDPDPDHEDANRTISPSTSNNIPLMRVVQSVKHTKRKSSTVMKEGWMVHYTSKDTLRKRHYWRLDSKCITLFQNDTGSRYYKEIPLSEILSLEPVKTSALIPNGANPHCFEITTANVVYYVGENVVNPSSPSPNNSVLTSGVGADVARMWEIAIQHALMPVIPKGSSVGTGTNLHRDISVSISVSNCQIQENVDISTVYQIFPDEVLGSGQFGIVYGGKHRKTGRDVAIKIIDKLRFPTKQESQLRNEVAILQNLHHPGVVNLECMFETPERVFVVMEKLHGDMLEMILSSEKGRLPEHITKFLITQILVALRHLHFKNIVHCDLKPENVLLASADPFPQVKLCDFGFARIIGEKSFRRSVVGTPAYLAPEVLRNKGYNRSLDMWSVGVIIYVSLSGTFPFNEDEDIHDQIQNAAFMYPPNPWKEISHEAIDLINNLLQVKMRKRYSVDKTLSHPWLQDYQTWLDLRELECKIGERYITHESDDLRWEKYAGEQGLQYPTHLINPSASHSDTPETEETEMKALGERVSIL
Sequence of UniProt P0DMS8 (whole entry, looked up): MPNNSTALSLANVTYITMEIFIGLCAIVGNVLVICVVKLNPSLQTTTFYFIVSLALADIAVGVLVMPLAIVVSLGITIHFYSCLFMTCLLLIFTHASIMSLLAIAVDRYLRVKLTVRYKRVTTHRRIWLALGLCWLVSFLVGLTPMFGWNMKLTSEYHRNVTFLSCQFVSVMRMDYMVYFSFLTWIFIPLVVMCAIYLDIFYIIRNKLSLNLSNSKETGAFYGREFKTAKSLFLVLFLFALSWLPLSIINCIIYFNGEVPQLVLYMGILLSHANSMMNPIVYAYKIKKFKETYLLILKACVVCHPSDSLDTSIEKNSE
Sequence of UniProt O00329 (whole entry, looked up): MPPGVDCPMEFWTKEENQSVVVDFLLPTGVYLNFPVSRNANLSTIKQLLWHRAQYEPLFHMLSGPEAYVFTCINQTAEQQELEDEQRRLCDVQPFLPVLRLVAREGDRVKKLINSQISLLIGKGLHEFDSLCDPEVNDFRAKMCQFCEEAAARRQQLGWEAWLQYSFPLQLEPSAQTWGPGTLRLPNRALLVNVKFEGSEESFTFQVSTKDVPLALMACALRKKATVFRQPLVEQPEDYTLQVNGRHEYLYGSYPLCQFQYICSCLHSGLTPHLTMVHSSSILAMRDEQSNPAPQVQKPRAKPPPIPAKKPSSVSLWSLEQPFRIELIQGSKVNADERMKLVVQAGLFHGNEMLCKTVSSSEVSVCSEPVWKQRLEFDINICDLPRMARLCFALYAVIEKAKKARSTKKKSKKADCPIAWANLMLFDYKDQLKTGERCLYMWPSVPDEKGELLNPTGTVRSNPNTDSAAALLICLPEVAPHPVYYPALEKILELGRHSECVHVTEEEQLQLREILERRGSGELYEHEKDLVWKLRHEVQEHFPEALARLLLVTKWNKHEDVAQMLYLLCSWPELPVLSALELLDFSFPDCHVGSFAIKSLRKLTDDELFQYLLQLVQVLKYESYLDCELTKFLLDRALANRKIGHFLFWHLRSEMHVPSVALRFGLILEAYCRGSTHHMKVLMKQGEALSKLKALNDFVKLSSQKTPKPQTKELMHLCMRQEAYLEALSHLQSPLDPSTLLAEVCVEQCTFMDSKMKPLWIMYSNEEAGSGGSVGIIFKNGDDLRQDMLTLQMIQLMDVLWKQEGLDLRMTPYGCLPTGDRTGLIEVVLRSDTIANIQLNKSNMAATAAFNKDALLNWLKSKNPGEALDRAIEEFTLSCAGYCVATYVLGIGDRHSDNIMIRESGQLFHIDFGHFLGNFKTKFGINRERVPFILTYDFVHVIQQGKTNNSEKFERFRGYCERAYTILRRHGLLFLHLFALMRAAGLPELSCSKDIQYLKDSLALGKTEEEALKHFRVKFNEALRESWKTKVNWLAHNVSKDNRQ
Sequence of UniProt O15530 (whole entry, looked up): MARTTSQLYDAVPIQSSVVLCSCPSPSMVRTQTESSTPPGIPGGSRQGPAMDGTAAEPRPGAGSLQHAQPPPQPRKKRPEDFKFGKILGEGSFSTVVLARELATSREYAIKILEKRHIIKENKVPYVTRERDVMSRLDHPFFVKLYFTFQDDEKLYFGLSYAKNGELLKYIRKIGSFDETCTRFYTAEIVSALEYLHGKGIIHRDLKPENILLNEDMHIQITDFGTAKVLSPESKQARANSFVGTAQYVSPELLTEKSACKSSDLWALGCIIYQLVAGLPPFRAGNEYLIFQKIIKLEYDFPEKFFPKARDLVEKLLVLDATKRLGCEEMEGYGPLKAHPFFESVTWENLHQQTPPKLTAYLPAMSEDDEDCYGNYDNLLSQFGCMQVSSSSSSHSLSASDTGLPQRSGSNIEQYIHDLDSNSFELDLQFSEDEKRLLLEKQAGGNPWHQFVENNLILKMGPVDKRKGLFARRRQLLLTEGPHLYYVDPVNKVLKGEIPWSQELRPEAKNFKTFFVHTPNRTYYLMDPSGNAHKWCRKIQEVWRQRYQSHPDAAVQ
Sequence of UniProt P43140 (whole entry, looked up): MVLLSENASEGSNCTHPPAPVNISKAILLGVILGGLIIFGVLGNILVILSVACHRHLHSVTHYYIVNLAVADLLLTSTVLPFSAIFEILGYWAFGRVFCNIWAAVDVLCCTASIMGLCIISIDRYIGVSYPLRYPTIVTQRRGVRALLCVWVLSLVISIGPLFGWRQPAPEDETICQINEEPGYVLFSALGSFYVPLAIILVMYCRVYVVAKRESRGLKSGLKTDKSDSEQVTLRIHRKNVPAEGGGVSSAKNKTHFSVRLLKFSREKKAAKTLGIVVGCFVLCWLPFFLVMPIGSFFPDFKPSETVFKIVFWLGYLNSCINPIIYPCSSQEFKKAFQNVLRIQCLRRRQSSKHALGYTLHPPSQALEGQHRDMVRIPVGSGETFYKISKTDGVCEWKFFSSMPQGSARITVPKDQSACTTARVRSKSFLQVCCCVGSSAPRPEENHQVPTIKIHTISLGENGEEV
Sequence of UniProt Q8NFD2 (whole entry, looked up): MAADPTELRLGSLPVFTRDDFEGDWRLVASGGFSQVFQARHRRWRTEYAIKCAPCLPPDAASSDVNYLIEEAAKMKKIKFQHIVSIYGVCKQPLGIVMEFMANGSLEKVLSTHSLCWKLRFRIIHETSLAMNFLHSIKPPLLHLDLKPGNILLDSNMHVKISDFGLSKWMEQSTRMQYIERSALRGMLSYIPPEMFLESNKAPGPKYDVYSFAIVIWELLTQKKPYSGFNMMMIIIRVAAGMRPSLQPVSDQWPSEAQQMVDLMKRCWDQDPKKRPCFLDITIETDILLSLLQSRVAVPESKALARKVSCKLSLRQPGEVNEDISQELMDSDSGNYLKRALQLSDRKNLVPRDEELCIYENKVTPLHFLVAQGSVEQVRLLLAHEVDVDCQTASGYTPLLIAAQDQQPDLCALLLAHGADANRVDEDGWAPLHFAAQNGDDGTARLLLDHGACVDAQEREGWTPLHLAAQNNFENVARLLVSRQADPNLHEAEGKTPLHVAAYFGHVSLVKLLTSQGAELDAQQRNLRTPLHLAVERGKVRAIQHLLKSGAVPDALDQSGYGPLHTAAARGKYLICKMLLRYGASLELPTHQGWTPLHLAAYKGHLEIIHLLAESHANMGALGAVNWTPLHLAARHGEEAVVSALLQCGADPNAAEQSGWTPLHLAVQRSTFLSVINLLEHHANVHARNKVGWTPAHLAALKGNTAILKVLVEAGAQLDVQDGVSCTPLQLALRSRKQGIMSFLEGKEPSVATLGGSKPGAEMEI

| Compound | target or system | test | test system | conditions | quantity | result |
| --- | --- | --- | --- | --- | --- | --- |
| CN(C(=O)n1cnc(-c2ccc[n+]([O-])c2)c1)C1CCCCC1 | central imidazoline I2 receptor, rat | binding | – | 10 µM, with: [3H]idazoxan | inhibition | 4% |
| Cn1cc(-c2cccc(N3CCc4c(sc5c4CC(C)(C)C5)C3=O)c2CO)cc(Nc2ccncn2)c1=O | PDPK1 (Homo sapiens, UniProt O15530) | kinase activity, inhibitor, SelectScreen | – | 1 µM, with: ATP at apparent Km | inhibition | 14% |
| Cc1ncc(C)n2nc(/C=C/c3nc(N4CCCC4)cc(N4CCOCC4)n3)nc12 | central benzodiazepine receptor | radioligand binding | – | 10 µM | inhibition | -3% |
| COc1cc2c(Oc3ccc4[nH]c(C)cc4c3F)ccnc2cc1OCC1(N)CC1 | – | – | paediatric refractory sarcoma patients | 10 mg | ALT elevation incidence | 0% |
| COc1cc(Nc2ncc(F)c(Nc3ccc4c(n3)NC(=O)C(C)(C)O4)n2)cc(OC)c1OC | ANKK1 (Homo sapiens, UniProt Q8NFD2) | KINOMEscan | – | 10 µM | inhibition | 95% |
| C#Cc1n[nH]c2c(-c3cn([C@@H](C)c4ccccn4)c(=O)[nH]c3=O)cc(F)cc12 | Phosphatidylinositol 4,5-bisphosphate 3-kinase catalytic subunit delta isoform, with p85 alpha (PIK3CD, Homo sapiens, UniProt O00329) | kinase activity, inhibitor | – | 100 nM | inhibition | 4.9% |
| O=C(Nc1cnccc1Cl)N1CCN(Cc2ccc3c(c2)OC(F)(F)O3)CC1 | IP3 receptor, rat | binding | – | 50 µM, with: [3H]IP3 | inhibition | -7% |
| COc1ccc(N2C(=O)N(c3c(C)cccc3Cl)Cc3cnc(Nc4ccc(C5CCN(C)CC5)cc4OC)nc32)nc1 | PRKD1 (Homo sapiens, UniProt Q15139) | kinase activity | – | 0.5 µM | inhibition | 27% |
| O=C(Nc1cccnn1)N1CCC(=Cc2cccc(Oc3ccc(C(F)(F)F)cn3)c2)CC1 | Adra1a (Rattus norvegicus, UniProt P43140) | binding | – | 50 µM, with: [3H]prazosin | inhibition | 62% |
| CN1CCN(c2cc(-c3ccncc3)c(-c3ccc4ccccc4c3)nn2)CC1 | ADORA3 (Homo sapiens, UniProt P0DMS8) | antagonist, FLIPR | – | 10 µM | inhibition | 12.1% |

Repeated from above:
| Compound | target or system | test | test system | conditions | quantity | result |
| --- | --- | --- | --- | --- | --- | --- |
| Cn1cc(-c2cccc(N3CCc4c(sc5c4CC(C)(C)C5)C3=O)c2CO)cc(Nc2ccncn2)c1=O | PDPK1 (Homo sapiens, UniProt O15530) | kinase activity, inhibitor, SelectScreen | – | 1 µM, with: ATP at apparent Km | inhibition | 14% |
